Assay results pooled from the literature.
Each numbered part is a random draw from the data of one study; scales do not carry over between parts.

Block 1 — technique: RNA Bind-n-Seq; molecule type: RNA; medium: in vitro; concentration: 365 nM; baseline: no-protein control; direction: higher = stronger binding; endpoint: RBNS enrichment (R)
Target: RNA binding protein fox-1 homolog 2, RRM domain, GST-SBP tag (RBFOX2, Homo sapiens, UniProt O43251-10, residues 100-194)
Notes: natural RNA segment, single round, ends assumed
Strand = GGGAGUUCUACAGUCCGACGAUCCUUUUUUAAACACCUGUUUAUCCCAACCUUUUUGAGCUCAAGCUGUGAUAAAGAAGGGCCCAUCCUAUUUCCCCUCAUCUAGUCCAUUUACGAUUCUCACUGACUCCCCGUGGAAUUCUCGGGUGCCAA; result = 0.656
Strand = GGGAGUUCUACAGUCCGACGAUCACACAUUCCCGGUGAUAGAAUUGCUAAAUUGUCGUGAAAUAGGUUAGAAUUUUUCUUUAAAUUAUGGUUUUCUUAUUCGUGAAAAUUCGGAGAGUGCUGCUAAAAUUGGAUGGAAUUCUCGGGUGCCAA; result = 0.834
Strand = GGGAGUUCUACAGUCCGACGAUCCUUUUGCAGCAUGGAUCAAACAUUGGCUUACUGUGCUAAUGUGUGAAGAGAAAAAAUUCUCUAAAGCAGGUGAGCUUUAAUGAACAAAUGUGUAUUUUAUCUGAGUUUGAUGGAAUUCUCGGGUGCCAA; result = 3.06
Strand = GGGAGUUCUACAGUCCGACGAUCGAGCCUGGCAUACACACUCUGCAUGUUACUUCUUGAGAACUAGACCUGUGUGCCUGUGUUUUCCUGAACAGCUGCUUUCUGUCAGGCAGACUCCUCUGACCUGGAUGCGGUGGAAUUCUCGGGUGCCAA; result = 4.13
Strand = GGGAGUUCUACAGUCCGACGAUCAGUAUGCUUUUAGUCUAAGAAAAGCACAGAUGGAGCAAUACUUUCCUUCUUUGAAGAGAAUCCCAAAAGUUAGUUCAUCUUAAAGUGCAAUAUUGUUUAAUCUUAAAACUUGGAAUUCUCGGGUGCCAA; result = 0.519
Strand = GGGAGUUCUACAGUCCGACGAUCUAACUCUCAUUUGACAAGCAGAGAAAGAAAAGUUAAAUACCAGAUAAGCUUUUGAUUUUUGUAUUGUUUGCAUCCCCUUGCCCUCAAUAAAUAAAGUUCUUUUUUAGUUCUGGAAUUCUCGGGUGCCAA; result = 4.54

Block 2 — technique: protein binding microarray; molecule type: double-stranded DNA, one strand shown; medium: in vitro; concentration: not given; baseline: not given; direction: higher = stronger binding; endpoint: E-score
Target: Histone acetyltransferase KAT6A, both winged helices, GST fusion (KAT6A, Homo sapiens, UniProt Q92794, residues 1-181)
Notes: 8-mer, flanks averaged, mean of 2 arrays, mostly near background
Residues (chain): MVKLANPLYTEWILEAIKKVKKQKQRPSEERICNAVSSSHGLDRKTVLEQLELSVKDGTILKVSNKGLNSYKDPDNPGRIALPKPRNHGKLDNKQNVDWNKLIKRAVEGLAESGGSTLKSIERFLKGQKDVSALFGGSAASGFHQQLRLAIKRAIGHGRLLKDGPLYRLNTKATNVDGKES
Strand = CATCGTAC; result = -0.0808
Strand = AAAAAAGT; result = -0.065
Strand = GGTCTGCA; result = 0.0185
Strand = GGACCGCA; result = 0.0926
Strand = GCGTCGAA; result = 0.24
Strand = CGACGATC; result = 0.00302
Strand = GCACGTGA; result = -0.0692
Strand = CGTGCGTC; result = 0.249
Strand = GGGGATTA; result = -0.138
Strand = ACTTGATC; result = -0.0537
Strand = TCCTCTAA; result = -0.139
Strand = GCAGCCAC; result = -0.0167
Strand = CTGTCGCC; result = 0.129
Strand = ATCAGATG; result = -0.133
Strand = ACAAGACA; result = -0.0776
Strand = ATTGCACC; result = -0.159
Strand = GAGGAGGA; result = -0.129
Strand = AGAAGCCA; result = -0.0919
Strand = AAATAGCG; result = 0.178
Strand = AGTGCTGG; result = -0.173
Strand = ACAACTAA; result = -0.0557

Block 3 — technique: RNA Bind-n-Seq; molecule type: RNA; medium: in vitro; concentration: not given; baseline: input RNA pool; direction: higher = stronger binding; endpoint: bound/input enrichment
Target: RING finger protein unkempt homolog, zinc fingers 1-6, GST-SBP tag (UNK, Homo sapiens, UniProt Q9C0B0, residues 30-357)
Notes: RNA with constant flanks, human and mouse sites, ends assumed
Construct (chain): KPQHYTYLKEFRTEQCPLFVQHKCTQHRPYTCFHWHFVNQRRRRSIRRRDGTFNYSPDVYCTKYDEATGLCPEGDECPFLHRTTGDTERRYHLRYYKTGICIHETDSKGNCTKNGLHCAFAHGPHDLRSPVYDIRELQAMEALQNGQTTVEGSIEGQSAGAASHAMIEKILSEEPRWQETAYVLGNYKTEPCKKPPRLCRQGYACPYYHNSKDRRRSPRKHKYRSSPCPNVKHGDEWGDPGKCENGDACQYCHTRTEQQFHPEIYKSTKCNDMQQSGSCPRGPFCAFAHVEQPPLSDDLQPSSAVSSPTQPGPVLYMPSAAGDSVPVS
Strand = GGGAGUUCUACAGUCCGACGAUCACCCAUGCUUUUAUGGACACUAGGUAAACACCUUCAGCUUAAAUUUUUCGUUAAAUAUUUUAGUUUAUUUUAUUGUUAUCUUCCAGGUGUCUAAAUCUCCAGUCUGUCUGUUGUACUGGUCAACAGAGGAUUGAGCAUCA; result = 6.62 ratio
Strand = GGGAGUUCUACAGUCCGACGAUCUAAAGUGUAUUCUGUACAUAAUUUACAAAUAAAACAUUUUAUUUUAAUUGUUACUUAUUAUUUAGAUAUUUCUCAACACUUAAAUUCAUAAAAUUAAGACCAUGUAAGGGUAUGUUUUUACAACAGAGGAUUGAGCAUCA; result = 1.27 ratio
Strand = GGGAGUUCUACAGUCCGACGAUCCUCAAUGCAUUGACCAAGCAUGUCUCACCACUGAUAGGACGUUUUGUUCCCUUUGCUGCCGUAGCUGCUGCUAAUUGCAUUAAUAUUCCAUUAAUGAGGCAAAGGGAACUCAAAGUUGGCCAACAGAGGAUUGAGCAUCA; result = 0.144 ratio
Strand = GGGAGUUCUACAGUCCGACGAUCUCUUAAGUAGCCUUAAACAGAACAGCGAAAAUUUAAAAUUGACAAAAUAUUUUUAAGACUUCAAAAUAGUAAAUAAUUUUUAACUAUUAUAAUUGGCCUCAAACUAACAAAUUUAAAUCUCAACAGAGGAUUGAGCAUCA; result = 16.8 ratio
Strand = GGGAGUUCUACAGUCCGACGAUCUGACAAGGGCACUGCAGAGCCAUGCCUUUCCUUGACAUACAGAAAAAGCUGGGCAUCAGCCUGGACCGGCACUUUAUGUUCCUAAGCGCAGAACAGCCCUAUAAGAACGCCGCUCGGUGCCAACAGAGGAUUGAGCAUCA; result = 0.085 ratio
Strand = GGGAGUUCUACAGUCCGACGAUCAAAGGCAAAAUAACAGCAGGGAAACACAGACGACUGACUCGAAAAAGUAGCACAAGCAUUGAUGAAGAUGCAGGAAGACGUCACUCAUGGCAUGAUGAAGACGAUGAAGCAUUUGAUGAACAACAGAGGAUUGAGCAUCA; result = 0.744 ratio
Strand = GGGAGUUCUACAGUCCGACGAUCGGUAGUGAACAAUGACCUCAUUUUAUUUUCUAUGUUAGUUAUUUAUUUCAAAAUUUACAUUUUAGUUUAUUUUCGUCUGUAAAGCGUAUGUUUCGCACUGCUCUUUUACUCUGAGGGUUUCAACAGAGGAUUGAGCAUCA; result = 339 ratio
Strand = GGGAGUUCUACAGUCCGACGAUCGAUGUAGUAGUCAACAUUUUUAUUAAUAGUUUUGGAUCCAUUCAAGAGACAACAAUGGACUAUAGAGUUAACAUUUUCUUGAGACAGAAAUGGAAUGACCCCAGACUCAAGCUACCUAGUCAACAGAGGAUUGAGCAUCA; result = 4.67 ratio

Block 4 — technique: RNA Bind-n-Seq; molecule type: RNA; medium: in vitro; concentration: 200 nM; notes: whole 134-nt RNA, ends assumed; with: 150 mM KCl; baseline: input library; direction: higher = stronger binding; endpoint: log2 enrichment
Target: Fragile X messenger ribonucleoprotein 1, C-terminal low-complexity region (Fmr1, Mus musculus, UniProt P35922)
Strand = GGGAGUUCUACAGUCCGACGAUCUGGCCCUGGUGGCAUGCGGGGAGGAAGAGGUGGCCUCAUGGAUCGUGUUGGUCCCGGUGGAAUGUUCAGAGGUGGCCGUGGUGGAGACAGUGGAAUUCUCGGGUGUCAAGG; result = 0.0375
Strand = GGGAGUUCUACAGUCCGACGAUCGUCCUGUGCUACACAUCGUAUGUACCGAAUCGGAAAAAAAGGUUUUUUUGGUUUUUGGAAAGUAUUAUGUUACGCCGUUCGGAUCUGCACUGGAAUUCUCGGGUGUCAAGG; result = -1.35
Strand = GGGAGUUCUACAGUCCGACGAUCUGCCUCCCUGCUGCAGAAAUACACCGACAACAGCGAGAAGCCAUCCGGGAAGAGACUGUGCAAAACCAAACACUUGAUCCCUCAGGAGUCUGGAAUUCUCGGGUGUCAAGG; result = -0.198
Strand = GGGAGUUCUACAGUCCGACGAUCACCAUGCAGGUGGGCAUCUUUGGGAAGUGGGGCAAGGGGGGGAUAGGGAGGGGGGUAACACUUUGGGAACAGGUGGUCCCAUGUCGUUUCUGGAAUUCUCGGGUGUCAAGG; result = 0.903
Strand = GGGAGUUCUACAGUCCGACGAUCAAGUCCUGUGCUACACAUCGUAUGUACCGAAUCGGGGAAAAAGGGGUGGGGUGGGGAAAGUAUUAUGUUACGCCGUUCGGAUCUGCACUUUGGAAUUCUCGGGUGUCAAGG; result = 1.03
Strand = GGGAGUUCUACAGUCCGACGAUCUCAAGUCCUGUGCUACACAUCGUAUGUACCGAAUCGGGUGGGUGGGUUUUUGGGAAAGUAUUAUGUUACGCCGUUCGGAUCUGCACUUCCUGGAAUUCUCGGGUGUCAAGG; result = 1.02
Strand = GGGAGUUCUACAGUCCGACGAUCUGGCCCUGGUGGCAUGCGGGGAGGAAGAGGUGGCCUCAUGGAUCGUGGUGAUCCCGGUGGAAUGUUCAGAGGUGGCCGUGGUGGAGACAGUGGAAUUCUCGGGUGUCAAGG; result = -0.0945
